Experimental data of several laboratories.
Lines come from different studies, so protocols differ. ± gives the spread as reported.
UniProt Q61143, sequence (whole entry, unmodified, looked up): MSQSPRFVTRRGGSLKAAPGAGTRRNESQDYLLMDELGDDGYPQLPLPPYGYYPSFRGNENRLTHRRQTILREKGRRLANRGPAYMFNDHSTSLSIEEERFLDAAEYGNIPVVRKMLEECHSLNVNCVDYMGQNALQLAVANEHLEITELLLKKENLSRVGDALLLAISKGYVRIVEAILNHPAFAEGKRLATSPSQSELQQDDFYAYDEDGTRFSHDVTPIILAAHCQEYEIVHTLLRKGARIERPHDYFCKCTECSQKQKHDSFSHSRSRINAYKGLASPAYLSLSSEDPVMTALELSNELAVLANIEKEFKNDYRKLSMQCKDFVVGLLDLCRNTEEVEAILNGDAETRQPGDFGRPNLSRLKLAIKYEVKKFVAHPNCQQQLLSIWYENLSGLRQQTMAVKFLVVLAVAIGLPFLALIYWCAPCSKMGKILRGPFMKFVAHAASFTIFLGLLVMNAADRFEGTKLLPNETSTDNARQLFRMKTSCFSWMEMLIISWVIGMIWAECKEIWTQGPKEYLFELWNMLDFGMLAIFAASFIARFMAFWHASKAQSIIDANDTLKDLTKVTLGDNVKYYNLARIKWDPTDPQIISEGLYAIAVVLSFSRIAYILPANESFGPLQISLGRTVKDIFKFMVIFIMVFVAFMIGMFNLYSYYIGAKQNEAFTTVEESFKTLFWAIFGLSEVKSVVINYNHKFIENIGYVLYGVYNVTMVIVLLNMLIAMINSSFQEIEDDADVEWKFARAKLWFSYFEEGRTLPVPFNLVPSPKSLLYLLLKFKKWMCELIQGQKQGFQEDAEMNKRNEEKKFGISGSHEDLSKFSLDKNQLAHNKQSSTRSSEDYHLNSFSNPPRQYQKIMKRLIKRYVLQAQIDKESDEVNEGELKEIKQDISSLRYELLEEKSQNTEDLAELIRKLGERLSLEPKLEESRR
UniProt P18654, sequence (whole entry, looked up): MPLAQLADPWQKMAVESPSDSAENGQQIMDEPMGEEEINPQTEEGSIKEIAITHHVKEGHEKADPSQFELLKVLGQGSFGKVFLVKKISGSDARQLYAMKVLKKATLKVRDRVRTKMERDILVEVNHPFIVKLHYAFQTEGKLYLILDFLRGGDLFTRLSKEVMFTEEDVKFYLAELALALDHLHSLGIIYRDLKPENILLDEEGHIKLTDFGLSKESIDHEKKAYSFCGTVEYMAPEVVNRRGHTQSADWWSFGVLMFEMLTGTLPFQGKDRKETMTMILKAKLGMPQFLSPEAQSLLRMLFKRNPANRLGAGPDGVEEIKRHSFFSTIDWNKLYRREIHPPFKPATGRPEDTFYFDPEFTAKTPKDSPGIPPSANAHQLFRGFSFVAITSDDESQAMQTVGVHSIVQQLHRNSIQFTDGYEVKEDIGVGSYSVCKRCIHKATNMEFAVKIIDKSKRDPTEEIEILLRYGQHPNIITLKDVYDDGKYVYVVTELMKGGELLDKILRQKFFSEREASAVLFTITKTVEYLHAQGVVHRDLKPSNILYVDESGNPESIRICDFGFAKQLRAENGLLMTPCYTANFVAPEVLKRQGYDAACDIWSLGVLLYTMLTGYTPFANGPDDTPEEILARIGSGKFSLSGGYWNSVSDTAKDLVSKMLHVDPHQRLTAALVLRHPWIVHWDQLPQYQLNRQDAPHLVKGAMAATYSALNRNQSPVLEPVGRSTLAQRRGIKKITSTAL
UniProt Q9Y294, sequence (whole entry, unmodified, looked up): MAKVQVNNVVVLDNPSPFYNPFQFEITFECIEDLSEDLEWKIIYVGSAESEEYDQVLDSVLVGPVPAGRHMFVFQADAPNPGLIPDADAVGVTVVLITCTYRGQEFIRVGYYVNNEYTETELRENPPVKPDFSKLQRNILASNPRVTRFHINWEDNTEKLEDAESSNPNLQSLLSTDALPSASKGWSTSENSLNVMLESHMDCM
UniProt P50750, sequence (whole entry, looked up): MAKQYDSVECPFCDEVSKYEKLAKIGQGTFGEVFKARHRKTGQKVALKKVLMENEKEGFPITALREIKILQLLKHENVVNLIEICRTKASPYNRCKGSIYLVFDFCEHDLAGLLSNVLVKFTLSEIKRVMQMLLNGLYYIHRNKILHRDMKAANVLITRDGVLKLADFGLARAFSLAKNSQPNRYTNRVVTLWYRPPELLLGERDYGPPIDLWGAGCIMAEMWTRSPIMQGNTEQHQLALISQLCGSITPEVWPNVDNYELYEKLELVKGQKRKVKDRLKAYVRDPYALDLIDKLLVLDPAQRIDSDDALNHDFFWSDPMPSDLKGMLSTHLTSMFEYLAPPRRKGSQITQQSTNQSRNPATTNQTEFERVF
UniProt P03951, sequence (whole entry, looked up): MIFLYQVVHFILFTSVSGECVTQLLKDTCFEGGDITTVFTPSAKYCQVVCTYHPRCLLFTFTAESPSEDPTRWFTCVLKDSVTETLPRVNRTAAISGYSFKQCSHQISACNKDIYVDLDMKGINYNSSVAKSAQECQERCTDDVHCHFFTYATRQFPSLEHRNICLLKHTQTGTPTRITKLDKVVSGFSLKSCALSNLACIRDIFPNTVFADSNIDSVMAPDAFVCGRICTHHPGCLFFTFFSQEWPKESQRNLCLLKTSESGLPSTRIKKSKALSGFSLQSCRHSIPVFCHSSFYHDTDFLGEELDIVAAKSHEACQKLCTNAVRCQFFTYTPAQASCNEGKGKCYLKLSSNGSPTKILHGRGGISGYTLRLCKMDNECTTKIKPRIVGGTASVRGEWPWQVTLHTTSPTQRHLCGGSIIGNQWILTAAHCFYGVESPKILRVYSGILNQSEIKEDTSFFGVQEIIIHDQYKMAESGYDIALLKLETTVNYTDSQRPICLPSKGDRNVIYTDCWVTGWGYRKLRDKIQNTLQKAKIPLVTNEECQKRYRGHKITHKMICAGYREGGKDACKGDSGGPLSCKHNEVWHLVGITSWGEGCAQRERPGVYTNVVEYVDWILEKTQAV
UniProt P05067, sequence (whole entry, looked up): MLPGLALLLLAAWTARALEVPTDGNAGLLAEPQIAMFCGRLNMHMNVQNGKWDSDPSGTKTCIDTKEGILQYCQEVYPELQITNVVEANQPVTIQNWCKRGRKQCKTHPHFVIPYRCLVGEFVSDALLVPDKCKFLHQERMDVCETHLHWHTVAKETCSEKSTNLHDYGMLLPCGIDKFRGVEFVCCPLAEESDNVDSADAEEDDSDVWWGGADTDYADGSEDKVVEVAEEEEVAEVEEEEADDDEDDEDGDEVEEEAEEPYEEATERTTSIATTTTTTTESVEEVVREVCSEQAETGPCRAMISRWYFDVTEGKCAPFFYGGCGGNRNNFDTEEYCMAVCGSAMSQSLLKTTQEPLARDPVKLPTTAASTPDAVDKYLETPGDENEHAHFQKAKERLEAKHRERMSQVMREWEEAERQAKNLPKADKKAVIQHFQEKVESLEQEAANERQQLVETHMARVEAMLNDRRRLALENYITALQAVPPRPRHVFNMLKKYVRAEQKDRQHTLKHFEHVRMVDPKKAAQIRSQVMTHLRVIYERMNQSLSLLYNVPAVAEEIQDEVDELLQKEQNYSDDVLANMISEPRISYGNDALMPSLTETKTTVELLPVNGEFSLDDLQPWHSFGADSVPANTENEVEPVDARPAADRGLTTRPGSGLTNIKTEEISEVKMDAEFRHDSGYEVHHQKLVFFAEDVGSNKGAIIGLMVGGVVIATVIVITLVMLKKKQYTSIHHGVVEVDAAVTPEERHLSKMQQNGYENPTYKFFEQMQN
UniProt Q13619, sequence (whole entry, looked up): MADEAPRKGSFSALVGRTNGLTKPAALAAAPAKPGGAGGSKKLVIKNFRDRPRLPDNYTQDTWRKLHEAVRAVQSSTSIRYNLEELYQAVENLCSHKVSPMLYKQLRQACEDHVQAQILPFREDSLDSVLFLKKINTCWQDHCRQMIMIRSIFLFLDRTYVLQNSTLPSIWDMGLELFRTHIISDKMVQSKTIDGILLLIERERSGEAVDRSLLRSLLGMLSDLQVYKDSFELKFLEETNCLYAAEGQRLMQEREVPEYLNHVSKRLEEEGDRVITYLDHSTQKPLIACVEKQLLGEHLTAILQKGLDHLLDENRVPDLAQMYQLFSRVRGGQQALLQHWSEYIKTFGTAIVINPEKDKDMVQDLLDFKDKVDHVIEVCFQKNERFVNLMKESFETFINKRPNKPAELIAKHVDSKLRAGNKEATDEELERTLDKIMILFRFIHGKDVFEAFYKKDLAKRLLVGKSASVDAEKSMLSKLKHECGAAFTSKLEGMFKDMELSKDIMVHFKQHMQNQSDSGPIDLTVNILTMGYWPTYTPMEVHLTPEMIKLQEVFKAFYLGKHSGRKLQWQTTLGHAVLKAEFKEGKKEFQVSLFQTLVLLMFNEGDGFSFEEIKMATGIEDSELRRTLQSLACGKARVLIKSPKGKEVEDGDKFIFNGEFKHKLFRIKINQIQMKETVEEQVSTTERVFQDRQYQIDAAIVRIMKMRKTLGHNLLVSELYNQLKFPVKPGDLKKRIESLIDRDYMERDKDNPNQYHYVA

Structure (SMILES) | target | test | test system | setting | scale | quantity | result
CC[C@H](C)[C@H](NC(C)=O)C(=O)N[C@H]1CSSC[C@@H](C(=O)N(C)[C@H](C(N)=O)[C@@H](C)CC)NC(=O)[C@H](CCCNC(=N)N)NC(=O)[C@H](Cc2c[nH]cn2)NC(=O)[C@H](C)NC(=O)CN(C)C(=O)[C@H](Cc2c[nH]c3ccccc23)NC(=O)[C@H](CC(=O)O)NC(=O)[C@H](CCC(N)=O)NC(=O)[C@H](Cc2cn(C)c3ccccc23)NC(=O)[C@H](C(C)C)NC1=O | Complement C3 (Homo sapiens, UniProt P01024) | ITC | PBS | concentration not given, pH 7.4, 25 °C | – | ΔH of binding | -17.1 kcal/mol
O=c1c(-c2cnn(-c3ccccc3)c2)c(C(F)(F)F)oc2c(O)c(O)ccc12 | Cullin-4A, in CRL4-CRBN complex (CUL4A, Homo sapiens, UniProt Q13619) | CK1α ubiquitination by CRL4-CRBN, inhibitor | – | – | – | inhibitory concentration | 30 µM
CC[C@H](C)[C@H](NC(=O)[C@H](CCCNC(=N)N)NC(=O)NC[C@H](CCC(N)=O)NC(=O)NC[C@H](CC(C)C)NC(=O)NC[C@H](CCCNC(=N)N)NC(=O)NC[C@H](Cc1c[nH]c2ccccc12)NC(=O)[C@H](CCCCN)NC(=O)[C@H](CCC(=O)O)NC(C)=O)C(=O)N[C@@H](C)C(N)=O | Histone chaperone ASF1A (Homo sapiens, UniProt Q9Y294) | isothermal titration calorimetry | – | pH 7.5, 20 °C | – | -TΔS | -2.7 ± 0.7 kcal/mol
Cc1ccc(C(=O)Nc2ccc(CP(=O)(O)O)cc2CP(=O)(O)O)cc1NC(=O)c1cccc(NC(=O)Nc2cccc(C(=O)Nc3cc(C(=O)Nc4ccc(CP(=O)(O)O)cc4CP(=O)(O)O)ccc3C)c2)c1 | F11 (Homo sapiens, UniProt P03951) | enzyme activity, inhibitor | – | 25 µM, together with: S-2366 substrate | – | Km | 410 ± 40 µM
O=C1c2ccc(O)cc2OC2c3cc(-c4coc5cc(O)ccc5c4=O)ccc3OC12c1ccc(O)cc1 (centres unmarked) | laccase (Trametes versicolor) | substrate, Hill kinetic model | – | product formation | – | Hill coefficient | 1.45
OC[C@H]1O[C@@H](Oc2ccc(-c3cn([C@H]4[C@H](O)[C@@H](O)[C@H](c5cn([C@H]6[C@H](O)[C@@H](O)[C@H](n7cc(-c8ccc(O[C@@H]9O[C@H](CO)[C@H](O)[C@H](O)[C@H]9O)cc8)nn7)O[C@@H]6CO)nn5)O[C@@H]4CO)nn3)cc2)[C@H](O)[C@@H](O)[C@H]1O | lecA (Pseudomonas aeruginosa, UniProt Q05097) | isothermal titration calorimetry | – | 25 °C | – | ΔG | -9.6 ± 0.1 kcal/mol
O=C1Nc2ccc(Cl)cc2/C1=N/N=C/c1cccc(OCc2ccccc2)c1 | MAOA (Homo sapiens, UniProt P21397) | enzyme activity, inhibitor | – | 10 µM | – | remaining activity | 73.9%
O=C(c1cc2c(s1)CCCCC2)N1CCC(n2c(=O)[nH]c3ccccc32)CC1 | Trpc6 (Mus musculus, UniProt Q61143, E671C) | ion current, agonist, whole-cell patch clamp | – | E671C mutant | reference: 3 µM over 1 µM | current ratio | 6.1 ± 0.46
COCCOCCOCCOC(=O)C(C#N)=Cc1ccc(C=Cc2ccc(N(C)C)cc2)cc1 | Amyloid-beta precursor protein, Aβ42 aggregates (APP, Homo sapiens, UniProt P05067) | binding, fluorescence spectroscopy | PBS | 4 µM, together with: pre-aggregated Aβ(1-42) 5 µM | – | excitation maximum | 319 nm
Clc1ccc2ccc3[n+](c2c1)[Ir-3]12([c]4ccccc4-3)([c]3ccccc3-c3ccc4ccc(Cl)cc4[n+]31)[n+]1ccccc1-c1cccc[n+]12.F[P-](F)(F)(F)(F)F | Cyclin-dependent kinase 9, with cyclin T2 (CDK9, Homo sapiens, UniProt P50750) | – | MDA-MB-231 | 3 µM, 4 h | – | co-immunoprecipitation | no effect
COC(=O)/C(C#N)=C/c1c(-c2ccc(C)cc2)c2c(N)ncnc2n1CCCO | Ribosomal protein S6 kinase alpha-3, C-terminal kinase domain (Rps6ka3, Mus musculus, UniProt P18654) | kinetic trap, LC-MS | – | 10 µM, together with: 100 µM FMK trap | – | dissociation half-life | 42 min

Repeated from above:
Structure (SMILES) | target | test | test system | setting | scale | quantity | result
CC[C@H](C)[C@H](NC(=O)[C@H](CCCNC(=N)N)NC(=O)NC[C@H](CCC(N)=O)NC(=O)NC[C@H](CC(C)C)NC(=O)NC[C@H](CCCNC(=N)N)NC(=O)NC[C@H](Cc1c[nH]c2ccccc12)NC(=O)[C@H](CCCCN)NC(=O)[C@H](CCC(=O)O)NC(C)=O)C(=O)N[C@@H](C)C(N)=O | Histone chaperone ASF1A (Homo sapiens, UniProt Q9Y294) | isothermal titration calorimetry | – | pH 7.5, 20 °C | – | -TΔS | -2.7 ± 0.7 kcal/mol
OC[C@H]1O[C@@H](Oc2ccc(-c3cn([C@H]4[C@H](O)[C@@H](O)[C@H](c5cn([C@H]6[C@H](O)[C@@H](O)[C@H](n7cc(-c8ccc(O[C@@H]9O[C@H](CO)[C@H](O)[C@H](O)[C@H]9O)cc8)nn7)O[C@@H]6CO)nn5)O[C@@H]4CO)nn3)cc2)[C@H](O)[C@@H](O)[C@H]1O | lecA (Pseudomonas aeruginosa, UniProt Q05097) | isothermal titration calorimetry | – | 25 °C | – | ΔG | -9.6 ± 0.1 kcal/mol
